Experimental data pooled from the literature.
Numbered parts are unrelated; each lists some results of a single study. Substitutions count along the parent as printed.

Series 1 — method: protein binding microarray; molecule type: double-stranded DNA, one strand shown; sample: in vitro; tested at: not given; reference: not given; direction: higher = stronger binding; quantity: E-score
Target: Histone acetyltransferase KAT6A, winged helix 2, GST fusion (KAT6A, Homo sapiens, UniProt Q92794, residues 85-181)
Notes: 8-mer, flanks averaged, mean of 2 arrays, mostly near background
Target sequence (chain): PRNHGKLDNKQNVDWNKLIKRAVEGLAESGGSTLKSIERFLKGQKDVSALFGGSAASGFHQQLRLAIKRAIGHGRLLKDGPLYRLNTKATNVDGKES
CCATCGCA: 0.0197
CCGCAGGC: 0.256
CCGTCGGA: 0.0202
TCAGTGGA: 0.00115
ACATGTAA: -0.0731
AGGATACA: 0.0171
AAAAAGCC: 0.0526
CGGCGTGA: 0.0935
CTGCCCTA: 0.143
CGTACTGC: 0.0689
CGTTATTC: -0.0761
ACCCATAG: -0.271
CAACGAGA: 0.0713
AGTGTGGG: -0.00741
GCGGTGCC: 0.236
CCCTCAGC: 0.034
TCGAGCCA: 0.0315
CCGGCCCC: 0.0963
CCCGAGGA: 0.0582
GAAGGCCA: -0.0107
ATATAAGG: -0.00171
CGCCACGC: 0.137
CCTCACTC: 0.00834
CCACTTCG: 0.141
ACTGCGAC: 0.198

Series 2 — method: universal PBM; molecule type: double-stranded DNA, one strand shown; sample: in vitro; tested at: 600 nM; direction: higher = stronger binding; quantity: E-score
Target: Sal-like protein 4, full length isoform A (SALL4, Homo sapiens, UniProt Q9UJQ4, residues 1-1053)
UniProt Q9UJQ4, sequence (whole entry, looked up): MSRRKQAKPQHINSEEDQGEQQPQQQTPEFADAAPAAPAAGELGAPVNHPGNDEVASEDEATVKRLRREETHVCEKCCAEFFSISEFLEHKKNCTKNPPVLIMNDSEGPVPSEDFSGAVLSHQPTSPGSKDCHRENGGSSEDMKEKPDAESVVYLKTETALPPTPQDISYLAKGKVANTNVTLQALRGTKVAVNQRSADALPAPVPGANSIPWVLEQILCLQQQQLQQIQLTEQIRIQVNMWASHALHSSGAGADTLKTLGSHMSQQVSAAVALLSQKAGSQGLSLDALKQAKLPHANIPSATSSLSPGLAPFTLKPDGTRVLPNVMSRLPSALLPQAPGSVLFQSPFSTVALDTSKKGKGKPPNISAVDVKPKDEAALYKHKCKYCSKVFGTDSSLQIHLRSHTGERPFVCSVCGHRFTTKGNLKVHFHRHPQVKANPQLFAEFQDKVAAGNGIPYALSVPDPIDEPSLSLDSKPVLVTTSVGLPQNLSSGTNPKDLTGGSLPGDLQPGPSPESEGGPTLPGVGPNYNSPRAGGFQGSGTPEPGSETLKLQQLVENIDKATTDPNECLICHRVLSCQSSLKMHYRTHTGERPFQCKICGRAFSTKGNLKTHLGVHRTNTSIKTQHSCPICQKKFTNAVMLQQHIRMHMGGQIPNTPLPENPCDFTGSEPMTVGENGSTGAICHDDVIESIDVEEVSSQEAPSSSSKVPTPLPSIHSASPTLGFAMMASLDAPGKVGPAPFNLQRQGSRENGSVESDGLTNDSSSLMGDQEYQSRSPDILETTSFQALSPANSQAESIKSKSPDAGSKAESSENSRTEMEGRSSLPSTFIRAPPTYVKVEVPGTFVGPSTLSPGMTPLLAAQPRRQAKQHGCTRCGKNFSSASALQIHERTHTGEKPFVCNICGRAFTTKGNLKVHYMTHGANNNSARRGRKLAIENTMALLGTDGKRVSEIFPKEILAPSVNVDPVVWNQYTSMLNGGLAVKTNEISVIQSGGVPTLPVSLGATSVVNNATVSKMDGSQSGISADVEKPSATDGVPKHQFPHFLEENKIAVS
Notes: 8-mer, flanks averaged, mean of replicates
ACCTAGCT: -0.185
CGAATGAG: -0.0764
CGCAATGA: 0.138
GCGGCCGC: -0.384
CGGCCTTA: -0.0748
CCTTGATC: -0.0477
AGCTTGAT: 0.0689
ATGCTAAT: 0.195
TCAGCGAA: -0.121
CAGCGCGC: -0.323
GGCTCCGA: -0.293
AGAGTAAC: -0.0732
GATATTAA: 0.385
ATTTGCCC: 0.0155
ACGAAGTG: 0.0582
CTCGATGA: 0.0261
CAGGGTCG: -0.324
CTATATCC: 0.137
CCCCTGCC: -0.236

Series 3 — method: aptamer microarray, sandwich; molecule type: DNA with 2'F-ANA; sample: in vitro; tested at: 200 nM; with: Cy3 exosite-II aptamer, 400 nM; direction: higher = stronger binding; quantity: mean fluorescence intensity; sequence: GGTTGGTGTGGTTGG
Target: Prothrombin, mature alpha-thrombin (F2, Homo sapiens, UniProt P00734)
Notes: whole 15-mer aptamer, many near background
2'F-ANA at 2 3 5 6 7 8 12 15: 246 a.u.
2'F-ANA at 1 5 8 9 13 14 15: 60.5 a.u.
2'F-ANA at 2 5 9 15: 93.2 a.u.
2'F-ANA at 2 3 12 13 15: 1050 a.u.
2'F-ANA at 2 4 6 8 9 10 11 14: 65.3 a.u.
2'F-ANA at 5 7 8 9 12 14: 56.6 a.u.
2'F-ANA at 3 4 5 11 12 13 14 15: 53 a.u.
2'F-ANA at 1 2 7 9 10 11 12 13: 58.7 a.u.
2'F-ANA at 1 2 3 7 8 11 12 14 15: 126 a.u.
2'F-ANA at 1 2 7 8 13 15: 200 a.u.
2'F-ANA at 1 2 4 7 9 10 11 12 14: 46.5 a.u.
2'F-ANA at 4 6 8 9 12 15: 472 a.u.
2'F-ANA at 1 3 6 7 11 13 14: 112 a.u.
2'F-ANA at 1 2 3 5 6 8 9 10 12 14: 62.5 a.u.
2'F-ANA at 2 4 5 7 8 9 10 11 15: 58.1 a.u.
2'F-ANA at 3 8 10 11 12 13: 547 a.u.
2'F-ANA at 5 7 10 11 14 15: 44.3 a.u.
2'F-ANA at 2 3 4 8 11 14 15: 282 a.u.
2'F-ANA at 1 2 5 8 9 10 11 12 15: 44.4 a.u.
2'F-ANA at 1 2 4 6 13: 71.8 a.u.

Series 4 — target: CCNB1, cyclin fold, Cln2 fusion (human); method: yeast growth competition, sequencing; sample: yeast; notes: weak parent motif; reference: not given; direction: higher = stronger binding; quantity: normalised enrichment score
Starting sequence: SLBP docking peptide (human); ARYKRKLLINDFG
ARYKRKVLINDFG [L7V]: 0.028
ARYKRKLLPNDFG [I9P]: 0.699
ARYKTKLLINDFG [R5T]: -0.000889
ARYKRELLINDFG [K6E]: 0.874
ARWKRKLLINDFG [Y3W]: 0.302
ARYKRDLLINDFG [K6D]: 0.227
ARYKRKTLINDFG [L7T]: 0.189
ARYKAKLLINDFG [R5A]: 0.762
ARYKRKHLINDFG [L7H]: -0.0505
ARYKRKLLVNDFG [I9V]: 0.417
ARYKRKLSINDFG [L8S]: 0.591
ARYKRKLLHNDFG [I9H]: 1.01
ARYKRKLLINDFQ [G13Q]: 0.15
AFYKRKLLINDFG [R2F]: 0.124
ARYKRKLAINDFG [L8A]: 0.825
ARYKRALLINDFG [K6A]: 0.965
ARYKRKLYINDFG [L8Y]: 0.361
ARYKRKLLINDNG [F12N]: 0.256
ARYKRKLLINDTG [F12T]: -0.0979
ARYKQKLLINDFG [R5Q]: 0.0369
ARYKRKLLINKFG [D11K]: 0.22
ARYKRKLLINDFV [G13V]: 0.986
LRYKRKLLINDFG [A1L]: 0.0179
ARYKRILLINDFG [K6I]: 0.519
ARYKRKLLSNDFG [I9S]: 1.51

Series 5 — method: protein-binding microarray; molecule type: double-stranded DNA, one strand shown; sample: in vitro; tested at: 0.8 µM; notes: whole 60-bp probe, no competitor; direction: higher = stronger binding; quantity: fluorescence intensity; constant ends, left off below: … GTCTTGATTCGCTTGACGCTGCTG
Target: Centromere-binding protein 1, full length, N-terminal tag (CBF1, Saccharomyces cerevisiae, UniProt P17106, residues 1-351)
UniProt P17106, sequence (whole entry, looked up): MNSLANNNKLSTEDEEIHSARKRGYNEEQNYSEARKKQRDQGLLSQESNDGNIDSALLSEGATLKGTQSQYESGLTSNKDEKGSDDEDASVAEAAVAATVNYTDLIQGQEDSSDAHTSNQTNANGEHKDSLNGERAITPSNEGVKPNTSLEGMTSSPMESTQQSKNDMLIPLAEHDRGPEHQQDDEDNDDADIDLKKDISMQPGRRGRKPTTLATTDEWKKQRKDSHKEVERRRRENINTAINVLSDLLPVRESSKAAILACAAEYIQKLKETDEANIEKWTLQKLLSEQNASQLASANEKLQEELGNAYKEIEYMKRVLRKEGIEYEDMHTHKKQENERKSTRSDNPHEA
CTATGGTTATAAGGTGGTGTAAAGTAATGTAATTTC: 535 a.u.
CTAAATTTCTATCTTCACGCGCTTTCTCACTAATTC: 552 a.u.
GAACTTTTGGGTTATCACGTTCAACAAGGAACTTAG: 922 a.u.
TGTACGAAGCTATCCCACATGAATATAGTAGTTAGG: 538 a.u.
GAATGGCTTCCCGATCACGTGCTACAACCTCATTAG: 18500 a.u.
GAAGGGTCAACAGATCACGAGCCAATTTGAATTTAG: 1880 a.u.
CTAAACTAGGCCCAGCACGGGTTTGGCGAGGCCTTC: 574 a.u.
CCTAACTACTATAGGAATGACACATAGCTTCGTACA: 529 a.u.
GAAGCGATTGACAATGACGTCATCAGTGCATAGTAG: 519 a.u.
GAATAAAAAAAAAGCCATGTGAATCAAAAAAAGTAG: 899 a.u.
GAATATCATATTTTCCACGTGAGGGAGCTCAAATAG: 2440 a.u.
GAAGCAGTAATTGTGCACATGCAGTTTTTGTTTTAG: 769 a.u.
CTACCTTAAATCGTGAACGTGGAGATGATTATTTTC: 582 a.u.
CTAGCATCAATATATGGTGTGACCAGATTGGACTTC: 745 a.u.
CCTAACTACTATAATCACATGATATAGCTTCGTACA: 3450 a.u.

Series 6 — method: protein-binding microarray; molecule type: double-stranded DNA, one strand shown; sample: in vitro; tested at: 250 nM; notes: 60-bp whole probe; with: salmon DNA 0.4 mg/ml; reference: random background probes; direction: higher = stronger binding; quantity: log fluorescence; constant ends, left off below: GCCTAGCAC … GTCTTGATTCGCTTGACGCTGCTG
Target: Interferon regulatory factor 7, full length, phosphomimetic (IRF7, Homo sapiens, UniProt Q92985, residues 1-503, S101K/S471D/S472D/S475D/S476D/S477D/S483D/S484D/S487D)
UniProt Q92985, sequence (whole entry, unmodified, looked up): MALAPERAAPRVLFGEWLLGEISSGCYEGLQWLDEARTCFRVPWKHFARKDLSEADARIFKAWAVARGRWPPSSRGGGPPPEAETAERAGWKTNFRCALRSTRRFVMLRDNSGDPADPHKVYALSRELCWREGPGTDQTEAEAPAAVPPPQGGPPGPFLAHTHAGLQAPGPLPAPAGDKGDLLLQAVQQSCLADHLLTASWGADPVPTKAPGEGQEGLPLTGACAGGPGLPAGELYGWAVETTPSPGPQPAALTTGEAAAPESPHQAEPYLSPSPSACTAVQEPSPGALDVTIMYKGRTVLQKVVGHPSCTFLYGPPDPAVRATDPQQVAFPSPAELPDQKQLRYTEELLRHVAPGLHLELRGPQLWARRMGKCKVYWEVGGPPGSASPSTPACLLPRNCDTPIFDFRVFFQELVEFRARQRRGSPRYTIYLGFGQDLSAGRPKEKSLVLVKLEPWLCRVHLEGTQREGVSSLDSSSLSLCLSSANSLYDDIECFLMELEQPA
TCACTTTTCAGTCCCCTACTGTGCTAG: 1.14 z-score
GACGATCTCAGTCACGAGACGTGCTAG: 0.0979 z-score
TACGGACTGGGTTTCGGGACGTGCTAG: 1.98 z-score
GACGGTTTCCTTTTCCTTACGTGCTAG: 7.02 z-score
TTAGGTTTCGGACTCGGTTAGTGCTAG: 5.14 z-score
GACGGACTGGCACTGGGGACGTGCTAG: -0.811 z-score
GGACGGCAGTGCACACAGTGGTGCTAG: -1.07 z-score
GACAGTCTCCTTTTCCTGACGTGCTAG: 1.7 z-score
GACGGTTTCAGTCTCGAGACGTGCTAG: 2.05 z-score
TAAGGTTTCGGTCTCGGTTAGTGCTAG: 9.11 z-score
TTCGGACTGGGTTTCGGTTAGTGCTAG: 6.13 z-score
GACGGTAGCCTTTTCCTGACGTGCTAG: -0.234 z-score
TCAATTTTGTTTTTCATACTGTGCTAG: 1.36 z-score
TTAGATTTCAGTCTCGCTTAGTGCTAG: 1.51 z-score
GACGATTTCGGGACTGGAGGCGTGCTA: 0.122 z-score
TTAGGTATCTACACTGGGTTAGTGCTA: -0.516 z-score
GACGGTCTCCTTTTCGTGACGTGCTAG: 1.11 z-score
ACTCCTATCCAAGTTCCCCTGGTGCTA: 0.668 z-score
TCATTTTCCTTATTGCTTACTGTGCTA: 3.55 z-score
TCTCTTTTTGCTTTCTTTTAGTGCTAG: 2.71 z-score
GACGGTCTTGGACTGGGGACGTGCTAG: -0.349 z-score
TTAGATATCCGGACTGGATTAGTGCTA: -0.351 z-score
TCTACTGTCTGTTTCCTCTTGTGCTAG: 0.654 z-score

Some of these lines once more (series 5):
GAAGCGATTGACAATGACGTCATCAGTGCATAGTAG: 519 a.u.
GAATATCATATTTTCCACGTGAGGGAGCTCAAATAG: 2440 a.u.
CTAAACTAGGCCCAGCACGGGTTTGGCGAGGCCTTC: 574 a.u.
GAAGGGTCAACAGATCACGAGCCAATTTGAATTTAG: 1880 a.u.
CCTAACTACTATAATCACATGATATAGCTTCGTACA: 3450 a.u.
CTATGGTTATAAGGTGGTGTAAAGTAATGTAATTTC: 535 a.u.
GAATAAAAAAAAAGCCATGTGAATCAAAAAAAGTAG: 899 a.u.
CTAAATTTCTATCTTCACGCGCTTTCTCACTAATTC: 552 a.u.
GAATGGCTTCCCGATCACGTGCTACAACCTCATTAG: 18500 a.u.
CTACCTTAAATCGTGAACGTGGAGATGATTATTTTC: 582 a.u.
CTAGCATCAATATATGGTGTGACCAGATTGGACTTC: 745 a.u.
TGTACGAAGCTATCCCACATGAATATAGTAGTTAGG: 538 a.u.
CCTAACTACTATAGGAATGACACATAGCTTCGTACA: 529 a.u.
